Results from different studies.
Every numbered part comes from another study and shows a few of its results, in no order. Changes are numbered by the printed parent chain.

Series 1
Target: Ras GTPase-activating protein-binding protein 1, C-terminal RGG region (G3BP1, Homo sapiens, UniProt Q13283)
Chain of UniProt Q13283 (whole entry, looked up): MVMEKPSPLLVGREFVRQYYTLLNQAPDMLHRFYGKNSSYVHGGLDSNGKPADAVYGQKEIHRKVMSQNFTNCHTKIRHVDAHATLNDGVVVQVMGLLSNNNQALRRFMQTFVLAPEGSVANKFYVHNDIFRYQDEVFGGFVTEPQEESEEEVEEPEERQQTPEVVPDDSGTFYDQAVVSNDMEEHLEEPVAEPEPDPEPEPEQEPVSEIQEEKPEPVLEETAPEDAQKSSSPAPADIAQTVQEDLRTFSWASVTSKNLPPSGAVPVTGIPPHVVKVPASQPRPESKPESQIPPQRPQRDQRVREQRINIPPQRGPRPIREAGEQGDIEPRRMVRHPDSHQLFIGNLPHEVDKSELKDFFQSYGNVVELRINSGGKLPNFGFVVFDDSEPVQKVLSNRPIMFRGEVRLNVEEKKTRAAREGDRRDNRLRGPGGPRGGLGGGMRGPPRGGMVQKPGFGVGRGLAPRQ
Technique: RNA Bind-n-Seq
Form: RNA
Matrix: in vitro
Tested at: 1 µM
Notes: whole 134-nt RNA, ends assumed
Together with: 150 mM KCl
Relative to: input library
Direction: higher = stronger binding
Endpoint: log2 enrichment
Shared flanks, not repeated: GGGAGUUCUACAGUCCGACGAUC … UGGAAUUCUCGGGUGUCAAGG
Sequence = UGGGAGGUGGAUUUUGUUUAUUUUUUUAGCUCAUUUCCAGGGGUGGGAAUUUUUUUUUAAUACGUGUCAUGAAUAAAGUUGUUUUUGAAA; value = 3.3
Sequence = UCAAGUCCUGUGCUACACAUCGUAUGUACCGAAUCGGUUUGGAAAAAAAGGAGGAAAGUAUUAUGUUACGCCGUUCGGAUCUGCACUUCC; value = -1.33
Sequence = UAACUUUAGAGGAGGAUCUGAUGGAUAUGGCAGUGGACGUGGAUUUGGGGAUGGCUAUAAUGGGGAUGGAGGAGGACCUGGAGGUGGCAA; value = -0.761
Sequence = GUCCUGUGCUACACAUCGUAUGUACCGAAUCGGGAAAAAGGGAAAAAGGAAAAAGGGGAAAGUAUUAUGUUACGCCGUUCGGAUCUGCAC; value = -1.16
Sequence = UCCUGUGCUACACAUCGUAUGUACCGAAUCGGUUUUUUGGUUUUUUGGGGUUUUUUGGGAAAGUAUUAUGUUACGCCGUUCGGAUCUGCA; value = -0.938
Sequence = GUCCUGUGCUACACAUCGUAUGUACCGAAUCGGGGAAAGGGGAGGGGAAAAAAAGGGGAAAGUAUUAUGUUACGCCGUUCGGAUCUGCAC; value = 1.46
Sequence = UCAAGUCCUGUGCUACACAUCGUAUGUACCGAAUCGGGGCCGGCCGGGCCGGGGAAAGUAUUAUGUUACGCCGUUCGGAUCUGCACUUCC; value = -1.34
Sequence = UGGGAGGUGGAUUUUGUUUAUUUUUUUAGCUCAUUUCCAGGGGUGGGAAUUUUUUUUUAAUAUGUGACAUGAAUAAAGUUGUUUUUGAAA; value = 3.73
Sequence = GUGCUACACAUCGUAUGUACCGAAUCGGGGUUUUUUUGGGGAAAAAAAGGGGAAAAAAAGGGGAAAGUAUUAUGUUACGCCGUUCGGAUC; value = 0.117

Series 2
Target: CCNE2, cyclin fold, Cln2 fusion (human)
Technique: yeast growth competition, sequencing
Matrix: yeast
Notes: strong parent motif
Relative to: not given
Direction: higher = stronger binding
Endpoint: normalised enrichment score
Parent: CDKN1B docking peptide (human); PSACRNLFGPVDH; partner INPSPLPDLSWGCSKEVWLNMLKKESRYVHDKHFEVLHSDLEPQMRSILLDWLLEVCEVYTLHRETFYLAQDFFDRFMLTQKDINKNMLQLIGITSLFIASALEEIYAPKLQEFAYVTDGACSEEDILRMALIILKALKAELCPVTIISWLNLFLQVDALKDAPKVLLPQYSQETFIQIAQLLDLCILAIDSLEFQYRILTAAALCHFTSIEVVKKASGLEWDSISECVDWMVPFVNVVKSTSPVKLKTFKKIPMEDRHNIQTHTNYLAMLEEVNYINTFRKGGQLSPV
Variant = A3R; value = 0.964
Variant = S2I; value = 0.335
Variant = L7Y; value = 0.0417
Variant = L7A; value = 0.104
Variant = V11P; value = 1.02
Variant = A3N; value = 0.693
Variant = P10E; value = 1.2
Variant = F8T; value = 0.187
Variant = P1N; value = 2.54
Variant = G9M; value = 0.616
Variant = F8A; value = -0.233
Variant = A3H; value = 2.7
Variant = D12M; value = 1.17
Variant = F8C; value = -0.473
Variant = A3E; value = 0.637
Variant = V11F; value = 1.82
Variant = V11K; value = 1.03
Variant = P10W; value = 0.928

Series 3
Target: RING finger protein unkempt homolog, zinc fingers 1-6, GST-SBP tag (UNK, Homo sapiens, UniProt Q9C0B0, residues 30-357)
Technique: RNA Bind-n-Seq
Form: RNA
Matrix: in vitro
Tested at: not given
Notes: RNA with constant flanks, human and mouse sites, ends assumed
Relative to: input RNA pool
Direction: higher = stronger binding
Endpoint: bound/input enrichment
Shared flanks, not repeated: GGGAGUUCUACAGUCCGACGAUC … CAACAGAGGAUUGAGCAUCA
Construct (chain): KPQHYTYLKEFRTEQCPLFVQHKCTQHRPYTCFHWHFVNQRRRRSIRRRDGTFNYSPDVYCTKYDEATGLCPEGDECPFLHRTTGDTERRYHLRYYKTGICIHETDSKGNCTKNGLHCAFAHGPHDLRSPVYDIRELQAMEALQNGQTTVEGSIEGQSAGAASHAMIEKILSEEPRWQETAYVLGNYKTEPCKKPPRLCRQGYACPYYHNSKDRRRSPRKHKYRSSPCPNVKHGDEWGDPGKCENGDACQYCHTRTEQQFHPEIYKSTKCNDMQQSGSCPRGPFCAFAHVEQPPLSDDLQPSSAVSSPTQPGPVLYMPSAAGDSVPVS
Sequence = AUUAUAAGAGAAACAGAAAAUGAUGAUCUUACAAAUGUAAUUCAGAAAAUGAUCUGUGAAUAUAGUGAAGAAGUUACUCCUAUUGCUGUAGAAAUGACACAACAUCUGGCAAUGACAUUU; value = 0.182 ratio
Sequence = GCUCUUGGGAAUGUAAUCAGCGCCUUGGGGGACAAGAGCAAGAGAGCCACCCAUGUCCCUUACAGAGACUCUAAGCUGACAAGACUCUUGCAGGAUUCCCUUGGGGGUAACAGCCAAACC; value = 0.12 ratio
Sequence = GAGGAAAAGGCCAAACAAGACCCAUCUUAUUAUUUGAAAAACACAAAUUCGGAGACGAGAGAGACGCUACAGGAGCUCUACAAAGAGUUCAAAGGAGAUGAGAUUUUAGCAGCUACCAUG; value = 0.414 ratio
Sequence = GCUUCUGGAUCUAGAUCCAGGAAGUCACAUUCUAAGCAAAUGCCUCGGCCUGUUAAAGGGUUUAGUUGCUUCAGUUCAUGAAUGAUCCUAUCCCAGCCUACUCCUCUGUGGCCUUGACGC; value = 0.0734 ratio
Sequence = GAUGAGACUGAGCUUCACUCUUCUGAGAAAGGUUUAAAAGUAGAGGAAAAUAUUCAAAAGCAAAGUCAACAAACAAAGCUUUCUUCAGAUGAUAAAACCGAACGAAAAAGUAAACAUAGG; value = 0.62 ratio
Sequence = CUCUUCGAGGCCAUCCUGCAGUUCCAGAUGAACCAUAGCGUGCUUCAGCAGAAGGCCCGAGACAUGUAUGCAGAGGAGCGGAAGAGGCAGCAGCUGGAGAGGGACCAGGCUACAGUGACA; value = 0.124 ratio
Sequence = CACCACACUUUAAAGGCAGAUGCUCUAUUAGGAAAAGCAACAGUGGACUUGAAACAAGUGCUGUUAACACACAACAGAAAAUUAGAAAAAGUGAAAGAACAAUUAAAACUUUCCUUGGAA; value = 1.94 ratio

Series 4
Target: Interferon regulatory factor 5, full length, phosphomimetic (IRF5, Homo sapiens, UniProt Q13568-2, residues 1-514, S451D/S453D/S456D/S462D)
Technique: protein-binding microarray
Form: double-stranded DNA, one strand shown
Matrix: in vitro
Tested at: 940 nM top
Notes: 60-bp whole probe
Together with: salmon DNA 0.4 mg/ml
Relative to: random background probes
Direction: higher = stronger binding
Endpoint: fitted relative affinity
Shared flanks, not repeated: GCCTAGCAC … GTCTTGATTCGCTTGACGCTGCTG
Sequence = AACGGTCTCGGTCTCGGGACGTGCTAG; value = 4.23 z-score
Sequence = TTAGGTATGGGTATCGGTTAGTGCTAG; value = 3.06 z-score
Sequence = TCAACTCAGCACTTTGGCACTGTGCTA; value = -0.465 z-score
Sequence = TTAGGTTTCGGTCTCGGTGAGTGCTAG; value = 14.7 z-score
Sequence = TATAATATATATATTGTTAGGTGCTAG; value = -0.202 z-score
Sequence = TTTTATGAAGGCCGGGGAGGGTGCTAG; value = 1.04 z-score
Sequence = TTAGGTCACGGACTGGGTTAGTGCTAG; value = -0.468 z-score
Sequence = TGAACTTGGAATTTCCCTCTGTGCTAG; value = -0.476 z-score
Sequence = ATTGAGAATTCCACTCCGCTGTGCTAG; value = 0.0888 z-score
Sequence = TTAGGACCGGGTATCGGTTAGTGCTAG; value = 3.25 z-score
Sequence = GACGGTTTCGGGTTTAGGGACGTGCTA; value = 8.22 z-score
Sequence = CAGCCGCACAGCATGAGTTCGTGCTAG; value = -0.517 z-score
